Assay results gathered from unrelated publications.
Parts stem from different laboratories: compare values within a part only. Substitutions count along the parent as printed.

Study 1
Target: Histone acetyltransferase KAT6A, winged helix 2, GST fusion (KAT6A, Homo sapiens, UniProt Q92794, residues 85-181)
Method: protein binding microarray
Molecule type: double-stranded DNA, one strand shown
Medium: in vitro
Concentration: not given
Setting: 8-mer, flanks averaged, mean of 2 arrays, mostly near background
Baseline: not given
Reading: higher = stronger binding
Target sequence (chain): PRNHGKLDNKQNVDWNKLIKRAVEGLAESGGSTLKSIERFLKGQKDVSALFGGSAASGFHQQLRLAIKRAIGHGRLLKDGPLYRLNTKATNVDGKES
Strand | E-score
CCTGGCTC | 0.143
AAGCTTAT | 0.0139
CGAATTCC | 0.0998
GCATGTCC | -0.0906
CACTTACG | -0.0501
CGCAATTA | -0.00696
CACCACTC | 0.117
AAGGCCAA | -0.0326
AAACTCTC | 0.175
TCGTACCA | 0.0215
CAGCCCTG | -0.181
CAACGTCC | -0.206
CAACATCA | 0.00446
CAGTCACA | -0.0823
AGTCAGAT | -0.0601
AAAACGAT | -0.116
CAGAGAAC | -0.0114
AGGGATTC | -0.0694
AGGGCATA | 0.0485
GACCTTGA | -0.0129
AATGTTTC | -0.0413
ATATTTTA | -0.0132
AAATCAAG | -0.116

Study 2
Target: CCNA2, cyclin fold, Cln2 fusion (human)
Method: yeast growth competition, sequencing
Medium: yeast
Setting: weak parent motif
Baseline: not given
Reading: higher = stronger binding
Starting sequence: MASTL docking peptide (human); PMIAKNLMCELDE
Variant | normalised enrichment score
C9D | 0.0631
L7N | -0.164
M2A | 0.114
M8P | -0.207
D12Y | -0.31
C9V | -0.306
L7H | -0.912
L7C | -0.149
M2F | 0.231
L11K | -0.155
E10T | -0.393
D12Q | 0.188
E10G | 0.0024
I3Y | -0.0123
N6D | -0.144
A4E | -0.65
L11S | -0.13

Study 3
Target: RNA binding protein fox-1 homolog 2, RRM domain, GST-SBP tag (RBFOX2, Homo sapiens, UniProt O43251-10, residues 100-194)
Method: RNA Bind-n-Seq
Molecule type: RNA
Medium: in vitro
Concentration: 365 nM
Setting: natural RNA segment, single round, ends assumed
Baseline: no-protein control
Reading: higher = stronger binding
Constant ends, left off below: GGGAGUUCUACAGUCCGACGAUC … UGGAAUUCUCGGGUGCCAA
Target sequence (chain): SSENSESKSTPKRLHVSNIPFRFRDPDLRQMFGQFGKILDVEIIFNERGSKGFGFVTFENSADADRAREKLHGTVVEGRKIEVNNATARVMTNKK
Strand | RBNS enrichment (R)
UACAUCAGGUCAGCACAGAUUAACUCAGUUACGUGUUAUACCUUCAAGACGCUAGACAUUCCAGAAUUAUUUUCCUUGGCCAUCCAAGUGAAGUAGAAGUAGAUUGUUGG | 0.276
ACAGAAUUUCAGUAGCUUACAUAAAUCCUGAGAAUGUGAUUGGUUUUAAAAAGUAAGGUUUAAAGUCACAGCAGAUAGGAGAUUAAUGUUUUAUUGCCACAGAAAUUCUC | 0.535
AAAAGAAAUUUGAUGCCCAGAUAAUAUAUUAGGCACUACUGAUUUUUUAGUUAAAUUGAUGCACUACACUUUUGAUGUUUGAAGUUACAAACCUGUAAUUUUUUUGUAAA | 0.509
CUCGGCAGCAGUGACUGCAGCCCCAGCUUGCUUAAGCAGUGUAACAGCAGGGAAGCGGGAGGAGCUGAGAACUAUUAGAAGUUCCUAUUAUUUAUAAAUUCCACCCAAAG | 0.356
GCUGUGGGGAGUCCCAGUGGUGGAGGGGACACAGCGGGCCCGUUCCCAAGUCCGUGAUUUCAGUUUUUCUUUUAUGGUUUCAUUGUUUGUAGUUGCCUUUGGGUUUUUGU | 3.02
GCCUAGCCUCAGAUCCUCCGUGAGUAUGCCUACCAAAUGUUGUGAUUAAAGAGGCAGGCGUCACCACACCUGAUAAAUAUUUUCUUCAAGGGAACCAGAGUUUGGUUCUU | 0.354
CAUUCACAGGGAAACCUCUUUCCUUCCUAUAAAGGAAAGAGGUUGAAUUGACUCACAUUUCCACAUGGCUUGGGAGGCCUCAGGAAACUUACAAUCAUGGCGGAGGGUGA | 0.351
AGAGACCCUGAAAGAGGAGGGAGGACCCGCCUCCUUGUCUGCACAACUGCAUGCACUUCUCUCCCCAUCGCUCCACAACCUGAAACCGAGAAGGAGUUGCUGACCAGUGC | 3.89

Study 4
Target: FOSB, bZIP domain (human)
Method: DHFR protein complementation
Medium: yeast
Setting: single substitutions, most at no-binding floor
Baseline: wild-type JUN-FOS pair
Reading: higher = stronger binding
Starting sequence: JUN, bZIP domain (human); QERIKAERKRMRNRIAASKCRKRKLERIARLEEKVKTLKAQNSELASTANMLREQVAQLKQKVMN
Variant | binding fitness [natural log]
V35P | -1.21
L45Q | -1.34
L52Q | -1.54
L52D | -1.33

Repeated from above (study 1):
Strand | E-score
CACTTACG | -0.0501
CGCAATTA | -0.00696
CACCACTC | 0.117
AAGGCCAA | -0.0326
AAACTCTC | 0.175
TCGTACCA | 0.0215
CAGCCCTG | -0.181
